Results of several laboratories.
A part holds a random share of what one study measured.

Block 1 — technique: RNA Bind-n-Seq; form: RNA; matrix: in vitro; concentration: 100 nM; relative to: input RNA pool; direction: higher = stronger binding
Target: RING finger protein unkempt homolog, zinc fingers 1-6, SBP tag (UNK, Homo sapiens, UniProt Q9C0B0, residues 30-357)
Sequence of UniProt Q9C0B0 (30-357, looked up): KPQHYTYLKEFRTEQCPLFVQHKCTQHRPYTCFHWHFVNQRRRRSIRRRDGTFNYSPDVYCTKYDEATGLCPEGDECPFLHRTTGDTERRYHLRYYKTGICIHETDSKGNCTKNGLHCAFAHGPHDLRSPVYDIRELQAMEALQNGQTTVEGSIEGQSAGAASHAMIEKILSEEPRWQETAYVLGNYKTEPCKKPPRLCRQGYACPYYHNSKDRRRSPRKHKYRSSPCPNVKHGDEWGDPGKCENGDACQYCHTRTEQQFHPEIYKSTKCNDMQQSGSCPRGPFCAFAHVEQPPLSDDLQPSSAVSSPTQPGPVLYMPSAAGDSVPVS
Notes: RNA with constant flanks, vertebrate orthologous sites, ends assumed
Oligonucleotide	bound/input enrichment [ratio]
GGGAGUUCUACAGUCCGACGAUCGUCUAGGUAGGGGUAACCAUUAACUUAUUUUAUAAGGAAAUGAAAUGCUGAAAAUCACAUUAGUGCCAAGUUUAGCUGGAGAACAUGAGCCCCUUUUAGGUGAUUCUCAAGUGGAACUCCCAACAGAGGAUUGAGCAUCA	0.469
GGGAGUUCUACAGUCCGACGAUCAAAUUCCCCCGUUGUCACUGAGAACCACCAAAUCUGACUUUUACAUUUGGUCUCAGAAUUUAGGUUCCUGCCCUGUUGGUUUUUUUUUUUUUUUUUCAAACAGUUUUCAAAAGUUCUUAACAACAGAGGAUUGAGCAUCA	1.17
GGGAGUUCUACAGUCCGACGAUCGAAAUGGUGGUUGUACAUUAUUUCGUUUAGAAAAUAUAAAAAUUAAUUUUGCUUUGAAGUUAGGUGUUAAAUUGGAAUAGCUAUUAUACCCCAGAGAAUGGGGCAGUUGUGCCCUUUCCUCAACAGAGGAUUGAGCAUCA	2.49
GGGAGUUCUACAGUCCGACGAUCGUCCCUCAGUGACAGUAUGCCAUCGGUAGCGGAUUCCCACUCUAGUCAUUUCUCUGAAUUUAGCUGUUCUGACCUAGAAAGCAUGAAAACUUCUUGUAGUCAUGGUUCCACUGAUUAUCACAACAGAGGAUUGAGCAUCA	1.03
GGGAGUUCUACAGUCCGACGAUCGAAAUUCCCCAUUGUCACUGAGAACCACCAAAUCUGACUUUUACAUUUGGUCUCAGAAUUUAGGUUCCUGCCCCCCCCUUCCCCCCUUUUUUUUAAACAGUUUUCAAAAGUUCUUAAAGGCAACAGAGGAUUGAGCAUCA	0.494
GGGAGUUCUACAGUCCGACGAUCUGCUUUUAAAUAAACGUCUGUAAAUGUAUAUUGAGAGAAUUGAAGUAUUUAUAAACAGAGCGAUUUAUUUAAGGGAAAGGUCAUUCCUCUUUCAUACGUGAUCUGUGUUAAUUCCAUUCCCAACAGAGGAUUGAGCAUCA	0.223
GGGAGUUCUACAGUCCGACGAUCGUCUCUUCUCCCUUAUCCUGAUUUUAAAAGCCCUUCUUUCUUUCUUUUUUUUUUUUUUAGGCAUAUGUAGUAAUAAUAGCAGAAAGAUUUAAUUUGGGCAACUUUGAUUCUUCAAAGAGACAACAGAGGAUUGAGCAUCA	3.62
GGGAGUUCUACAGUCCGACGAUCAACCCCGAUUUUAGAUGUGAUACUUAGGCUUUCAUUCCAGUUUUUGGUUUUUGUCUUGUUUAGAUACCACUUUUAAAUUCUUGCAUUUUAGUAAGAAAGCUACCUUUUUAUGGAUGUUAGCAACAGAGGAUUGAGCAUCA	0.785

Block 2 — technique: RNA Bind-n-Seq; form: RNA; matrix: in vitro; concentration: 1 µM; notes: whole 134-nt RNA, ends assumed; together with: 150 mM KCl; relative to: input library; direction: higher = stronger binding
Target: Ras GTPase-activating protein-binding protein 1, RRM domain (G3BP1, Homo sapiens, UniProt Q13283)
Sequence of UniProt Q13283 (whole entry, looked up): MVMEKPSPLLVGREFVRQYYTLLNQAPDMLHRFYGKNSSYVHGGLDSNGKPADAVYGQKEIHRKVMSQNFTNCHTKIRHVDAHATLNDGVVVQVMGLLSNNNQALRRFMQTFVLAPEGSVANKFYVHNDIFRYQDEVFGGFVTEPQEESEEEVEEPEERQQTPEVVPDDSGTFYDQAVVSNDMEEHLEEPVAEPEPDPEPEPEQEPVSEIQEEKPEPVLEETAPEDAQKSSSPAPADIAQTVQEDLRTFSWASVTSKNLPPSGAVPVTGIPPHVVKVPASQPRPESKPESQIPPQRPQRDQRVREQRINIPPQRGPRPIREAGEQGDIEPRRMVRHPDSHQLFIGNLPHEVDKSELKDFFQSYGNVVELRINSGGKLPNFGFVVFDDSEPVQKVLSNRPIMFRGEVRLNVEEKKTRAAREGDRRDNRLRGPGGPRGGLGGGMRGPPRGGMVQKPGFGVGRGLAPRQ
Oligonucleotide	log2 enrichment
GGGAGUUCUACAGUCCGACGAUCCAAGUCCUGUGCUACACAUCGUAUGUACCGAAUCGGGGUGGGGUUUGGGGUGGGGAAAGUAUUAUGUUACGCCGUUCGGAUCUGCACUUCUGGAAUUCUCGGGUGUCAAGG	1.18
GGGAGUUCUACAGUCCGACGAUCUGGGAGGUGGAUUUUGUUUAUUUUUUUAGCUCAUUUCCAGGGUUGGGAAUUUUUUUUUAAUAUGUGUCAUGAAUAAAGUUGUUUUUGAAAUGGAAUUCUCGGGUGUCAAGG	1.75
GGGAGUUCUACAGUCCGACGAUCCCUGUGCUACACAUCGUAUGUACCGAAUCGGGGUUUUUUUGGGGUGGGGAAAAAAAGGGGAAAGUAUUAUGUUACGCCGUUCGGAUCUGCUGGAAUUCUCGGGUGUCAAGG	0.269
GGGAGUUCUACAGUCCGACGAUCUCCUGUGCUACACAUCGUAUGUACCGAAUCAAAGUGUGUGUGUGUGUGUGUGUGUGAAAAAAGUAUUAUGUUACGCCGUUCGGAUCUGCAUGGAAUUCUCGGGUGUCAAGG	0.198
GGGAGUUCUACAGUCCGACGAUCGCAGGAAGUAAAAACAAAUGGAAAUGCUUCGGAUAGUGGCAGGGGUGGGGGUUGCUAAGGAAAGGGUGGGGUGGGAGUGGGUAAAGAGUUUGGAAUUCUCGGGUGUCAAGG	1.05
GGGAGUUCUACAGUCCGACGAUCUUUUCAAGGGCCGCUUGAAGAUGCCAUUGAAGAUGAGGAAGAAGAAUGUCCAUCAGAGGAAACAGACAUCAUCUCCAAAGGAGACUUUCCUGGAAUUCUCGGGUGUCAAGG	-0.247
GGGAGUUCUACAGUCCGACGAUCUCAAGUCCUGUGCUACACAUCGUAUGUACCGAAUCGGGUUGGGUUGGGGUUGGGAAAGUAUUAUGUUACGCCGUUCGGAUCUGCACUUCCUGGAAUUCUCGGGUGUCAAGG	0.784
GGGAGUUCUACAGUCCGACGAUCCCUGUGCUACACAUCGUAUGUACCGAAUCGGGGAAAAAAAGGGGAAAAAAAGGGGAGGGGAAAGUAUUAUGUUACGCCGUUCGGAUCUGCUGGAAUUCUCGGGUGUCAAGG	0.363
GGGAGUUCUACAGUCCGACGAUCUCCUCAAGUCCUGUGCUACACAUCGUAUGUACCGAAUCGGCCGGCCGGCCGGAAAGUAUUAUGUUACGCCGUUCGGAUCUGCACUUCCAGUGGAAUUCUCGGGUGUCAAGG	-0.406

Block 3 — technique: RNA Bind-n-Seq; form: RNA; matrix: in vitro; concentration: 365 nM; relative to: no-protein control; direction: higher = stronger binding
Target: RNA binding protein fox-1 homolog 2, RRM domain, GST-SBP tag (RBFOX2, Homo sapiens, UniProt O43251-10, residues 100-194)
Notes: natural RNA segment, single round, ends assumed
Construct (chain): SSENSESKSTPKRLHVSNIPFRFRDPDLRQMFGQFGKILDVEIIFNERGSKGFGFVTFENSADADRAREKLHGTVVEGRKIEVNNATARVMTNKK
Oligonucleotide	RBNS enrichment (R)
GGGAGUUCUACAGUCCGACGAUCGCUUUUCAUUUAGGUAGAUGGUAAGCAUUCUCUUAAUCAUAAUUAGAACAAACUAGUGACCAAAUUGUCAUCUGCUAGUAUGGAAGUUCUUAGUUUUCUUAACCAUGCUUUGGAAUUCUCGGGUGCCAA	0.452
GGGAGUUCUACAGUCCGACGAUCCAUGCUCACUCCCCCACUUCUCACCUGCCAACAUCCUGGCCUCUGGCCGUGGCACUGGUGCCAGUACUUUGAAAGAUGGGGUGCAGCCUACACACUUACCUGUCUCAGACUGGAAUUCUCGGGUGCCAA	0.352
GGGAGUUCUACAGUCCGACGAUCGUUAGCCUUAGUGAUUGCAGUGAACACUGUUUACACACCGUGAAUCCAUUCCCACCAGUCCAUUUCAGUUGCCACCAGCCUGAACCACUCGGUACCUGGUGUUAACUGGAUGGAAUUCUCGGGUGCCAA	0.275
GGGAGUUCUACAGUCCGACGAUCGUUUCUCACAUUGCUGUAUUUUAGAAAAUAGGGGUUAAGACUGAUAACAACCUUUUACAUUGUGACUGUGUUUGCAUUGUCUAAUGACAGAUAAAUCCUUAACAUUUCUCUGGAAUUCUCGGGUGCCAA	0.661
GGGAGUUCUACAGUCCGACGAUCCUGCCUGCCAAUGCUCCAACUGAAGAGGCGACCUCUCACCCUGUGGCUCCGCCGUUAAGAGUGACCAGCUUAGCCACAGUUCUGGUGCUCAGCUUGAAGACAAGUCACAGUGGAAUUCUCGGGUGCCAA	0.425
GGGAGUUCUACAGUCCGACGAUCCCUCUCUUCCAAGCCCCACCCUAAGGGUUAGCCCUUGGCCAAAUCUUUUGCCGUCUAGGCCCAGCCAGGCUUUUCUGACUAAAUAAGCAAUAAGAGGCUCUAAGCUGACUUGGAAUUCUCGGGUGCCAA	0.32
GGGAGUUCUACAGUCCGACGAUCGGUUGAUUGAUUCACUGAUUAGUUUUACUGCCAUGUGCCUAUAACUAUAGGUUAUUCUCUUUCCUUUUCUAUGUUGUGUUUAUUCUAUUUAUUCUCUACAAUAUAUAAAAUGGAAUUCUCGGGUGCCAA	0.303
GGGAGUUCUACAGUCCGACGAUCCUUGGACGUGUCCCCUUUAUUUCAUGAGCCUUUCCCCGUUUGGGUUAAGAAGCUGUUAUGCUGUGGGAGCCAGGAGCCGUGUGUUCCUGCCAUCAGCUUUUCUCUGGUGAUGGAAUUCUCGGGUGCCAA	0.316

Block 4 — technique: protein binding microarray; form: double-stranded DNA, one strand shown; matrix: in vitro; concentration: not given; relative to: not given; direction: higher = stronger binding
Target: Histone acetyltransferase KAT6A, winged helix 1, GST fusion (KAT6A, Homo sapiens, UniProt Q92794, residues 1-85)
Notes: 8-mer, flanks averaged, mean of 2 arrays, mostly near background
Target sequence (chain): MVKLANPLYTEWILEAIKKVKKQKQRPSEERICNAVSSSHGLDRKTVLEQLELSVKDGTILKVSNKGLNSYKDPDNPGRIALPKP
Oligonucleotide	E-score
TCGGTGCA	0.0746
CTAATTTA	-0.0291
ACCCAGCG	0.0923
AGTACCTG	-0.17
GCACGCCA	0.0979
CGCTTGAG	0.105
AAACTGGT	-0.083
CGGGCGTC	0.338
CAGTCTCA	-0.127
AATAAAAG	-0.0536
CTATATGA	-0.0598
ACTTCGAA	-0.265
AGTAGTGG	-0.111
CGGACTAG	0.153
AGCATTAA	-0.178
CAGAAAAC	-0.101
CTTTAGTC	-0.125
GCGGCGGA	0.446
ATGGCTGA	-0.204
CACGCAGC	0.206
GACTAAGC	0.167
TATGTCAA	-0.0681
GAATCACC	-0.278
AACGCACG	0.214
